Measured values of several laboratories.
Parts stem from different laboratories: compare values within a part only.

Set 1
Target: RING finger protein unkempt homolog, zinc fingers 1-6, GST-SBP tag (UNK, Homo sapiens, UniProt Q9C0B0, residues 30-357)
Method: RNA Bind-n-Seq
Form: RNA
Medium: in vitro
Tested at: not given
Notes: RNA with constant flanks, human-mouse chimeric sites, ends assumed
Relative to: input RNA pool
Direction: higher = stronger binding
Residues (chain): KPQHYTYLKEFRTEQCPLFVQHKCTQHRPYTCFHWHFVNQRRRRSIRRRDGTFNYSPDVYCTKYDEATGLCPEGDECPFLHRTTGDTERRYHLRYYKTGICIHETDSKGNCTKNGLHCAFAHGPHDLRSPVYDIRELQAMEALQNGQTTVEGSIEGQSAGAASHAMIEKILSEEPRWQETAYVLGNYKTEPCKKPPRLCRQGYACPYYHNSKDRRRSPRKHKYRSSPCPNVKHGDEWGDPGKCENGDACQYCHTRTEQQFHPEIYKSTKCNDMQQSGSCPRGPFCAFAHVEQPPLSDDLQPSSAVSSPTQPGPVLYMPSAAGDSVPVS
For `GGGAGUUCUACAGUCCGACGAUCAUAGAUGAAAUUGAUGUGGACCAGGAAGGAAUUGCUGAAAUGAUCCUGGAUGAAAAUGCUAUUGCUCAAGUUCCACGCCCUGGCACAUCUUUGAAGCUCCCUGGCACUAAUCAGACAGGACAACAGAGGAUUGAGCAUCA`, the bound/input enrichment was 0.25 ratio.
With `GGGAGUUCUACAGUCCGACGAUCGAAUCCUCCCGUGCAAAAUUUUGCAACACCAAGCUCACAGCAGCAGCAUCUUAGUCACAGUAGGGUAGUUUUGGGGCAAUAUUGCCAGGGUUUUAUUCACAUGCAGGUUUGGAAAAUGUACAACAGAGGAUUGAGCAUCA` the bound/input enrichment was 4.68 ratio.
`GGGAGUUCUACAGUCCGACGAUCACUCAGAGAUCCACCUCCCAAAGUGCUGGGAGUAAAGGUGUGGCCACCACACCUAACUUGAUGGAUAUAUAUUUUUUUUAAUAUGAAUGAACUCUUGCUUCAUCCAGAGAAAGAUUUGUUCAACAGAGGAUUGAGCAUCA` gave a bound/input enrichment of 0.383 ratio.
`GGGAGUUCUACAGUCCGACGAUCAGAAAGCAAAACUUGGAACGAUUUAAGAAAGGAGACGUAAGAUUCUUGAUUUGCACAGAUGUAGCUGCUAGAGGAAUUGAUAUCCAUGGCGUUCCUUAUGUGAUCAAUGUCACUCUGCCUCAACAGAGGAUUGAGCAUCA` gave a bound/input enrichment of 0.193 ratio.
The bound/input enrichment of `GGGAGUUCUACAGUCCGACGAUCGUAGCUGGGACUACAGAAGAAUGCUGAAUUUCAGUCAGUGAGUCGUGACUUCUGAUGUCCCAGCAAAUGUUGGCAUUGUUGACUGCUGAGAAGAUACUUCUGAGGACCCACGUCUAAGGUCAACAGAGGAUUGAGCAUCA` is reported as 0.0625 ratio.

Set 2
Target: RNA binding protein fox-1 homolog 2, RRM domain, GST-SBP tag (RBFOX2, Homo sapiens, UniProt O43251-10, residues 100-194)
Method: RNA Bind-n-Seq
Form: RNA
Medium: in vitro
Tested at: 365 nM
Notes: natural RNA segment, single round, ends assumed
Relative to: no-protein control
Direction: higher = stronger binding
Residues (chain): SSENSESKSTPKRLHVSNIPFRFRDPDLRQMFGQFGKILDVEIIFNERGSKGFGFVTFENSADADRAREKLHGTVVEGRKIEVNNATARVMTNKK
`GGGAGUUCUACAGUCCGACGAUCAGAGGCUUCUCACCCUUCCUGCUUUUUCACCACAAUCACCUUGAGCUCGUCCCUUGGACUAGAGUCUCCACAGUUCCAGUAAAAUUCUGCGGUGGGCUGAUGAGCUGCUUUGGAAUUCUCGGGUGCCAA` — result for “RBNS enrichment (R)”: 0.521.
`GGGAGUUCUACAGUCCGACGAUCAUGGAAAGUGAAACCACAUGUGCCGUGACCUUUAGGUUUUAUGAGUAGACAGUGUUCAUUUGAUUUUCUACAGAAAUAAUAUAAAUUAUUCUUUAGGUUUAAAAAAGAGCUGGAAUUCUCGGGUGCCAA` — result for “RBNS enrichment (R)”: 0.459.
`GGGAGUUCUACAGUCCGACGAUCGAUCUUCUAAGGGGCCCAGGGCCAACCCUGUAGGCUUCCCCUCUGCUGGGGACGGUAGUUGCUUUUCUCUCUCCUGAUGCUAGGUUGGGGCCCACCCUGCUCCCUGUUCCUGGAAUUCUCGGGUGCCAA` — result for “RBNS enrichment (R)”: 0.423.
For `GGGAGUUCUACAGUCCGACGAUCGGCCCAGUGUACACUUAAGCACAUGCCUAACUCAAGAGUUUAGAUUUUAGUAUAGUUUAAAGUUGAGCUGCCUUUUCUUAUGUAGCUAUUUAAAAUAUUUCUGAAGUUCAUGGAAUUCUCGGGUGCCAA`, “RBNS enrichment (R)” read 0.379.
Under “RBNS enrichment (R)”, `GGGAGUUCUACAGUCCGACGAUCUUGUGAGGCCAAGGUGGGUGGAUCACCUGAGGUCAGGAGUUUGAGACCAGCCUGACCAAACAUGGCGAAACCCCAUCUGUACUGAAAAUACAAAAAUUAGGCAUGGUGGUUGGAAUUCUCGGGUGCCAA` is recorded as 2.94.
`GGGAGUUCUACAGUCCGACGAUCUAUGCCCCGAAUUCCUAGUGCAGUUCUCAUUCUCCGCAUGCCCUCAGCUGUGGUCAGGUGACUUCCUGUCCCCUGGCAGCUCUGCUGAGUCCCUGUGUUUGAGCCUCCAGUGGAAUUCUCGGGUGCCAA` — result for “RBNS enrichment (R)”: 0.538.
`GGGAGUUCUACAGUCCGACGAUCGUGAAGGUAGGGGUGAGCUCGUCUCACCCCUUUAUUAAAUGCUCCUGGAACUUGGAAGAGCAGCAGAUGAAGUUGGAAAGAAAAUUCUGCUCUUAUCACCUAAACAGGACUGGAAUUCUCGGGUGCCAA`: “RBNS enrichment (R)” 0.468.
`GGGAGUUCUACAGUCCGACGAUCUUUUUAUGCUGCUUUCUUACAUAGUUUCUCUUCAUUUUCACUUAACUCUGAAGACAACCAAAAGAACGGAUCAAUUAAAAACUGAUUCCACUUAUAACCAUUGUAUGCUCUGGAAUUCUCGGGUGCCAA` — result for “RBNS enrichment (R)”: 0.321.

Set 3
Target: Histone acetyltransferase KAT6A, winged helix 2, GST fusion (KAT6A, Homo sapiens, UniProt Q92794, residues 85-181)
Method: protein binding microarray
Form: double-stranded DNA, one strand shown
Medium: in vitro
Tested at: not given
Notes: 8-mer, flanks averaged, mean of 2 arrays, mostly near background
Relative to: not given
Direction: higher = stronger binding
Residues (chain): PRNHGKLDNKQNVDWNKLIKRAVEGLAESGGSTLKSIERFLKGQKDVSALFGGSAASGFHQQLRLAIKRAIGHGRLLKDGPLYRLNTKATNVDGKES
With `CGATAAAC` the E-score was -0.194.
`GAGTCACA` has an E-score of -0.00967.
The E-score of `CAGCTTTA` is reported as 0.0204.
`CTGGTTCA` has an E-score of 0.0279.
`ACTACTGA` gave an E-score of 0.0161.
With `TAGCGATA` the E-score was 0.0272.
For `GGTCAACC`, the E-score was 0.184.
`TAAGAAAA` has an E-score of 0.127.
`CGCTGCTA` gave an E-score of 0.00754.
The E-score of `GGGAGCAA` is reported as -0.041.
`GCAAAGCA` gave an E-score of 0.0794.
For `ACCTGATG`, the E-score was -0.148.

Other studies, line by line
For `PhoQ, residues 284 288 289 292 302 303 NSMLDC`, the fold induction was 15.7 (PhoP, residues 12 14 15 18 19 LWHSL (Escherichia coli, UniProt P23836); Sort-seq, item: YFP reporter; E. coli; PhoQ-PhoP variant library, together with: 10 µM Mg2+; relative to: high Mg2+ state, higher = stronger signaling).

Excerpt of the above (set 2):
`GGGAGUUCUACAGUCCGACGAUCAUGGAAAGUGAAACCACAUGUGCCGUGACCUUUAGGUUUUAUGAGUAGACAGUGUUCAUUUGAUUUUCUACAGAAAUAAUAUAAAUUAUUCUUUAGGUUUAAAAAAGAGCUGGAAUUCUCGGGUGCCAA` — result for “RBNS enrichment (R)”: 0.459.
`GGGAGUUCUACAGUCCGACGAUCGAUCUUCUAAGGGGCCCAGGGCCAACCCUGUAGGCUUCCCCUCUGCUGGGGACGGUAGUUGCUUUUCUCUCUCCUGAUGCUAGGUUGGGGCCCACCCUGCUCCCUGUUCCUGGAAUUCUCGGGUGCCAA` — result for “RBNS enrichment (R)”: 0.423.
For `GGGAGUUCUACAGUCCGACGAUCGGCCCAGUGUACACUUAAGCACAUGCCUAACUCAAGAGUUUAGAUUUUAGUAUAGUUUAAAGUUGAGCUGCCUUUUCUUAUGUAGCUAUUUAAAAUAUUUCUGAAGUUCAUGGAAUUCUCGGGUGCCAA`, “RBNS enrichment (R)” read 0.379.
Under “RBNS enrichment (R)”, `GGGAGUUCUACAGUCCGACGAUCUUGUGAGGCCAAGGUGGGUGGAUCACCUGAGGUCAGGAGUUUGAGACCAGCCUGACCAAACAUGGCGAAACCCCAUCUGUACUGAAAAUACAAAAAUUAGGCAUGGUGGUUGGAAUUCUCGGGUGCCAA` is recorded as 2.94.
